Assay results collected from several papers.
Protocols differ between the studies behind these lines. “And” joins repeats or separate records; there may be more than shown. ± gives the spread as reported.
T1: ssDNA, aptamer; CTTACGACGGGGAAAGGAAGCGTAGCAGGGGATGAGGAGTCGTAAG
UniProt Q16774, sequence (whole entry, unmodified, looked up): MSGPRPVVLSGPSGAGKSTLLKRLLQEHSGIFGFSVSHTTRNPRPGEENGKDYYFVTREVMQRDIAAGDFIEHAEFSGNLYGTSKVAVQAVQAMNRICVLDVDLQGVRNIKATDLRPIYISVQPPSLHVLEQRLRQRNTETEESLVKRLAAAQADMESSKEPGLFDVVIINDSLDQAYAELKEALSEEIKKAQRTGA
UniProt Q07011, sequence (whole entry, looked up): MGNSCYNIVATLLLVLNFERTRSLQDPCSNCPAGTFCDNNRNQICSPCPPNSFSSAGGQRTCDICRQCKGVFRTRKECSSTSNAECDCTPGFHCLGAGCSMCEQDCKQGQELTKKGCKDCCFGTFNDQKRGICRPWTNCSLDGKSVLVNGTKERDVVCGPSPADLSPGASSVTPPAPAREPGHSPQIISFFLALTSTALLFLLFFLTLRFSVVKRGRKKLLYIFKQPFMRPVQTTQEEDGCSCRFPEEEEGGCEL
UniProt P45983, sequence (whole entry, looked up): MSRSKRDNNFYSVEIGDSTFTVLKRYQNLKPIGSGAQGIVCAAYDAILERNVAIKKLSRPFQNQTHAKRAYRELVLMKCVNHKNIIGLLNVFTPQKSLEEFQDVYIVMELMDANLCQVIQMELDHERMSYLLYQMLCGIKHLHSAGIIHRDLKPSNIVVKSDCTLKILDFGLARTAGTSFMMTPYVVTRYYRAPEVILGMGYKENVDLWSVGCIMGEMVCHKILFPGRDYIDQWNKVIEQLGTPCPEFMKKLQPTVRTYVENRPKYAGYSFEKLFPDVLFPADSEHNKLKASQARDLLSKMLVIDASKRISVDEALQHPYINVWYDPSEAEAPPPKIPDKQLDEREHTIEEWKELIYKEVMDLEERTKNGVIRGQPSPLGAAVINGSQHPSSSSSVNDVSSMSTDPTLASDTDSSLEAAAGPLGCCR
UniProt P00634, sequence (whole entry, looked up): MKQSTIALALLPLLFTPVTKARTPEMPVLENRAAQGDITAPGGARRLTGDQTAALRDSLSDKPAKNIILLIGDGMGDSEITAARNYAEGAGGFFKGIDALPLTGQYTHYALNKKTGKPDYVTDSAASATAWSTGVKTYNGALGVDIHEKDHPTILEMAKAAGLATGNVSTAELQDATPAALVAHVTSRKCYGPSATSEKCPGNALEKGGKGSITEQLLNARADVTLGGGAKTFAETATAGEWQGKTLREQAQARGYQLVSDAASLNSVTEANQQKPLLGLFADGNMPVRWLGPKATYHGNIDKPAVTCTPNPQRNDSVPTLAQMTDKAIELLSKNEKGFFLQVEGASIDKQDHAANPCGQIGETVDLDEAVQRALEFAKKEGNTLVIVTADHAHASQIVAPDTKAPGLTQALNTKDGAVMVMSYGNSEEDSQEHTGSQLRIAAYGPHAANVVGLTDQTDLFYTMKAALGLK
UniProt Q96EB6, sequence (whole entry, looked up): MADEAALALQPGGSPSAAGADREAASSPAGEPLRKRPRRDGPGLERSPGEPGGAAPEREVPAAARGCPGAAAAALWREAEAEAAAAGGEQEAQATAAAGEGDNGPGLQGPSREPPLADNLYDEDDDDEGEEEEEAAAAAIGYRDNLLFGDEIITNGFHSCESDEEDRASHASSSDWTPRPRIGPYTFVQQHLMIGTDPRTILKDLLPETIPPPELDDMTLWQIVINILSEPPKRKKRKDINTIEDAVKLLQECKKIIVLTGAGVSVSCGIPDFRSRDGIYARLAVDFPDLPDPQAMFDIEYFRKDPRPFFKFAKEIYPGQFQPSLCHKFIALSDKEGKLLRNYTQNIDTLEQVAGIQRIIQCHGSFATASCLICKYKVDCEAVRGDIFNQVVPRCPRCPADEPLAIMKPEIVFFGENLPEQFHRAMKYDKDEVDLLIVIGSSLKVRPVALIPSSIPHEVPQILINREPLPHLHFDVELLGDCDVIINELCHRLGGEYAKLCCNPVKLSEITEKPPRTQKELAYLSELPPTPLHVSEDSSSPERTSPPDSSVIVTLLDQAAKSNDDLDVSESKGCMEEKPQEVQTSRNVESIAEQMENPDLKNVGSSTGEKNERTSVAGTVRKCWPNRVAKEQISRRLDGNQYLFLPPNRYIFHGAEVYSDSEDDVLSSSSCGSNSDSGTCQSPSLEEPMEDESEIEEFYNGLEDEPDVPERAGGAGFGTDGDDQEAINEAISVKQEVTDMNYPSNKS
UniProt Q9UH17, sequence (whole entry, looked up): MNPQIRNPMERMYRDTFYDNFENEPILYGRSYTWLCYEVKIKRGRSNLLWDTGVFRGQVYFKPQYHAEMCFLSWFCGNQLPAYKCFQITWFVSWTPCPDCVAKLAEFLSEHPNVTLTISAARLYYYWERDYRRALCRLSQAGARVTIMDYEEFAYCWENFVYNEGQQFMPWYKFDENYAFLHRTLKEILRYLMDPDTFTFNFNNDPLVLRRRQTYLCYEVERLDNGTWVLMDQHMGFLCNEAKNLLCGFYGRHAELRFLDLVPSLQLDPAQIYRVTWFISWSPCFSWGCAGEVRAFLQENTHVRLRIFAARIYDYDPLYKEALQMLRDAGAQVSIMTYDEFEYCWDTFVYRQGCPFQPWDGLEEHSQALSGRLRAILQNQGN
UniProt P21917, sequence (whole entry, looked up): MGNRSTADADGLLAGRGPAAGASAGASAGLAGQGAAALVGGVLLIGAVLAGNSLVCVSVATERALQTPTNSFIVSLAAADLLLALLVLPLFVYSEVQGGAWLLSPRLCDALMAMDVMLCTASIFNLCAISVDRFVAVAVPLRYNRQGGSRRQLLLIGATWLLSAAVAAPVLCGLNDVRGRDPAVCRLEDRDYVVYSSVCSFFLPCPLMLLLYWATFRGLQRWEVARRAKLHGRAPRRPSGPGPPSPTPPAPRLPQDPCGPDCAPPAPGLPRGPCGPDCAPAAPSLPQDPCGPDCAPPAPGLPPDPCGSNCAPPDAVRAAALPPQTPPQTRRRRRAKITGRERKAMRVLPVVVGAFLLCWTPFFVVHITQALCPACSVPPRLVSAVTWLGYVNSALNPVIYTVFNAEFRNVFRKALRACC
UniProt P19440, sequence (whole entry, looked up): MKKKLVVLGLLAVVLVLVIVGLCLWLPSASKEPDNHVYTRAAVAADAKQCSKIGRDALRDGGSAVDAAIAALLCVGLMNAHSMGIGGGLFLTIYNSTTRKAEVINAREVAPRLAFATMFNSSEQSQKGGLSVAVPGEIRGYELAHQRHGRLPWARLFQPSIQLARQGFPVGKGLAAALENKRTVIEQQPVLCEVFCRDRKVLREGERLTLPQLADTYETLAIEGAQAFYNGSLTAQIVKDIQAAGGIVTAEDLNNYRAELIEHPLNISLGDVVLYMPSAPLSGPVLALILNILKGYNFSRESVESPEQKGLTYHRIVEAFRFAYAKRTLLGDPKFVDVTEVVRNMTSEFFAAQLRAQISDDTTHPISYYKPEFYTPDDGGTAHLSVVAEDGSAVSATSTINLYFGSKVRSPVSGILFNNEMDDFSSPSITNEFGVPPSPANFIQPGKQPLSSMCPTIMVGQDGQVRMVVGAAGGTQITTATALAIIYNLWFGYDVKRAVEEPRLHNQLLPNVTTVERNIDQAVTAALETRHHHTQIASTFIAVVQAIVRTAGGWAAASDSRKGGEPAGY
UniProt Q04912, sequence (whole entry, looked up): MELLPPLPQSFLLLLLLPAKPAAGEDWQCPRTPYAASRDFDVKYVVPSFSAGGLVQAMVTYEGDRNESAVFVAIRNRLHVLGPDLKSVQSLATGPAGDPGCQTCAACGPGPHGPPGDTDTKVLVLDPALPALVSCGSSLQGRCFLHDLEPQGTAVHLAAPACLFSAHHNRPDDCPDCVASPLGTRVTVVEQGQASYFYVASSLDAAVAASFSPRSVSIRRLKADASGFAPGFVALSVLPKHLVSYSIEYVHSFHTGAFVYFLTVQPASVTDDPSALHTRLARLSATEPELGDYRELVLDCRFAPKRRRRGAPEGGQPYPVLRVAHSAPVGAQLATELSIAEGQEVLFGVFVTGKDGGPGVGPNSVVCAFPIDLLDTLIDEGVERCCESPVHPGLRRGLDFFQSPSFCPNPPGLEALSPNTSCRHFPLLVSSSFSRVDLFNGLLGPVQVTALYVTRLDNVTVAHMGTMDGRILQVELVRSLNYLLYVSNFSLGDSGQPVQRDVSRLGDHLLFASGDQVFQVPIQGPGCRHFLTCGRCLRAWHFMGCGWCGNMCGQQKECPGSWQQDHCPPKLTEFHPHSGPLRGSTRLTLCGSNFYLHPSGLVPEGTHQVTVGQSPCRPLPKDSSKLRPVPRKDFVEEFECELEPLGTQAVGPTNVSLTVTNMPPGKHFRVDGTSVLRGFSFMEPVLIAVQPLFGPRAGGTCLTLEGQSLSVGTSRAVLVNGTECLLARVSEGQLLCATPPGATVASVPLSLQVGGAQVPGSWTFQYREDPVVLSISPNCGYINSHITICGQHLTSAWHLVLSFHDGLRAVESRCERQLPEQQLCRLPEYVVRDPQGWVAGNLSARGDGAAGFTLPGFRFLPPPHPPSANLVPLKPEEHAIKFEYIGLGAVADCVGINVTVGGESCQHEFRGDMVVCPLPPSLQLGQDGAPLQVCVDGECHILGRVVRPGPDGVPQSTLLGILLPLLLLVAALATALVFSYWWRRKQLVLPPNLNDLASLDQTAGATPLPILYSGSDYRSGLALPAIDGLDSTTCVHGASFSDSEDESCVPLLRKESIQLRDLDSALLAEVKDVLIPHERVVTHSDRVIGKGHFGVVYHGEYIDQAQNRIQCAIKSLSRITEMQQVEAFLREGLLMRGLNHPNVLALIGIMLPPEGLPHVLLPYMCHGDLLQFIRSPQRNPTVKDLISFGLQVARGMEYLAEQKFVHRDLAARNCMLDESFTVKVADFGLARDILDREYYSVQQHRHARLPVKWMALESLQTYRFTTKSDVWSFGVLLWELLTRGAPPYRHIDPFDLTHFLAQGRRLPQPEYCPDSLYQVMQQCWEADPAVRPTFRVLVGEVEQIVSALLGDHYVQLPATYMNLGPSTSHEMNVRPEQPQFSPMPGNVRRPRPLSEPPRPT

SMILES | target | test | system | setting | how to read | quantity | value
CCCC[C@@H]1NC(=O)[C@H](Cc2ccc(O)cc2)NC(=O)[C@@H]2CCCN2C(=O)[C@H](CC(=O)O)NC(=O)[C@H](C)NC(=O)[C@H](Cc2ccccc2)NC(=O)[C@@H]2CSCCC(=O)N3CN(CN(C3)C(=O)CCSC[C@@H](C(=O)N[C@@H](CNC(=O)CCc3cn(CCOCCOCCOCCOCCOCCOCCOCCOCCOCCOCCNC(=O)N[C@H]4CSCCC(=O)N5CN6CN(C5)C(=O)CCSC[C@H](NC(=O)[C@@H](CC(=O)O)NC(=O)[C@H](Cc5cccc7ccccc57)NC(=O)[C@@H]5CCCN5C4=O)C(=O)N[C@@H](CCSC)C(=O)N[C@@H](CCCCNC(=N)N)C(=O)N[C@@H](CC(=O)O)C(=O)N[C@@H](Cc4c[nH]c5ccccc45)C(=O)N[C@@H](CO)C(=O)N[C@@H]([C@@H](C)O)C(=O)N4CCC[C@H]4C(=O)N4C[C@H](O)C[C@H]4C(=O)N[C@@H](Cc4c[nH]c5ccccc45)C(=O)N[C@H](C(N)=O)CSCCC6=O)nn3)C(N)=O)NC1=O)C(=O)CCSC[C@H](NC(=O)[C@H](C)NC(C)=O)C(=O)N[C@@H]([C@@H](C)CC)C(=O)N[C@@H](CCC(=O)O)C(=O)N[C@@H](CCC(=O)O)C(=O)NCC(=O)N[C@@H](CCC(N)=O)C(=O)N[C@@H](Cc1ccc(O)cc1)C(=O)N2 | Tumor necrosis factor receptor superfamily member 9/Nectin-4 (Homo sapiens, UniProt Q07011+Q96NY8) | reporter gene, agonist | HT-1376 coculture with reporter cells |  | reference: background | Emax | 23 fold
CC1(C)C2=C(Cl)C(=O)C(Cl)=CC2=Nc2ccc(OP(=O)(O)O)cc21 | phoA (Escherichia coli, UniProt P00634) | substrate, DDAO fluorescence |  | pH 8.0, soluble E. coli enzyme |  | Km | 4.1 ± 0.1 µM
CC(C)[C@H](NC(=O)c1cc(-c2cnn3cc(-c4ccc(OCCN5CCCCC5)cc4)cnc23)cs1)C(F)(F)F | ROCK2 (human) | radiometric kinase |  | 15 nM | reference: ROCK2 over ULK1 | relative inhibition | 0
CCC1(O)CCCN(C(=O)c2ccc(-c3ccc(F)c(NC(=O)CCl)c3)cc2)C1 (stereo not shown) | DNA dC->dU-editing enzyme APOBEC-3B, C-terminal domain (Homo sapiens, UniProt Q9UH17) | covalent modifier, intact protein mass spectrometry, item: adduct +26104 Da |  | 500 µM, 3 h, 20-fold molar excess |  | protein adduct | 25%
Nc1ncnc2c1ncn2[C@@H]1O[C@H](COP(=O)(O)OP(=O)(O)O)[C@@H](O)[C@H]1O | T1, ssDNA, aptamer | ITC |  |  |  | Kd | 19.9 µM
COc1ccc(Cc2nnc(NS(=O)(=O)c3ccccc3)s2)cc1 | Glutathione hydrolase 1 proenzyme, without transmembrane domain (Homo sapiens, UniProt P19440) | GSH hydrolysis, uncompetitive inhibitor |  | 37 °C, binds gamma-glutamyl enzyme, added: GSH 5-20 µM |  | Kii | 376 ± 50 µM
N[C@H](CC(=O)O)C(=O)O | Methyl-accepting chemotaxis protein, ligand-binding domain (Pectobacterium atrosepticum, UniProt Q6D6I9) | binding, thermal shift |  | ligand-binding domain |  | ΔTm | binds
COc1cc(F)ccc1-c1ncnc(Nc2cccc(C[S@](C)(=N)=O)c2)n1 | Macrophage-stimulating protein receptor (MST1R, Homo sapiens, UniProt Q04912) | kinase activity |  | 10 µM, added: 10 µM ATP |  | remaining activity | 79%
C[C@H]1O[C@@H](O[C@H]2CC[C@@]3(C)[C@@H](CC[C@]4(C)[C@@H]3C=CC3=C5CC(C)(C)CC[C@]5(CO)[C@@H](O)C[C@]34C)[C@]2(C)CO)[C@H](O)[C@@H](O[C@@H]2O[C@H](CO)[C@@H](O)[C@H](O)[C@H]2O)[C@H]1O | NAD-dependent protein deacetylase sirtuin-1 (SIRT1, Homo sapiens, UniProt Q96EB6) | binding, microscale thermophoresis |  | 198 nM |  | MST normalised fluorescence | 884 a.u.
O=C(CN1CCO[C@@H](COc2ccccn2)C1)N1CCc2ccccc21 | D(4) dopamine receptor (DRD4, Homo sapiens, UniProt P21917) | radioligand binding |  | concentration not given, added: [3H]N-methylspiperone |  | inhibition | 0.4%
CN1CCN(c2cc(-c3ccncc3)c(-c3ccc4ccccc4c3)nn2)CC1 | Gonadotropin-releasing hormone receptor (GNRHR, Homo sapiens, UniProt P30968) | agonist, FLIPR |  | 12.5 µM |  | activation | -0.6%
Cc1cc(-c2cccc(-n3cc(COC(=O)[C@]4(C)C=C(C(=O)OC(C)(C)C)C(=O)CC4)nn3)c2)c(C)c2c1CNCC2 | Mitogen-activated protein kinase 8 (MAPK8, Homo sapiens, UniProt P45983) | D-peptide binding, inhibitor, FP peptide displacement |  | 6.25 µM | lower is stronger displacement | fraction bound | 0.749
Nc1nc2c(ncn2[C@@H]2O[C@H](COP(=O)(O)O)[C@@H](O)[C@H]2O)c(=O)[nH]1 | GUK1 (Homo sapiens, UniProt Q16774, Y53A) | enzyme activity, NADH-coupled |  | 125 µM |  | reaction rate | 1.25 s⁻¹ and 1.08 s⁻¹ and 0.678 s⁻¹

Some of these lines once more:
SMILES | target | test | system | setting | how to read | quantity | value
Cc1cc(-c2cccc(-n3cc(COC(=O)[C@]4(C)C=C(C(=O)OC(C)(C)C)C(=O)CC4)nn3)c2)c(C)c2c1CNCC2 | Mitogen-activated protein kinase 8 (MAPK8, Homo sapiens, UniProt P45983) | D-peptide binding, inhibitor, FP peptide displacement |  | 6.25 µM | lower is stronger displacement | fraction bound | 0.749
